# Measurements of several laboratories.
# Lines come from different studies, so protocols differ. Numbers after ± are the reported error.
Compound,assay,system,conditions,how to read,measurement,value
O=C([O-])CN1CCN(CC(=O)[O-])CCN(CC(=O)NC[C@H]2CC[C@H](C(=O)N[C@H](Cc3cnc4ccccc4c3)C(=O)NCCCC[C@H](NC(=O)N[C@@H](CCC(=O)O)C(=O)O)C(=O)O)CC2)CCN(CC(=O)[O-])CC1.[64Cu+2],"PET/CT, OLINDA/EXM dosimetry","healthy human volunteers, red marrow",,,absorbed dose,0.0115 mGy/MBq
O=C([O-])CN1CCN(CC(=O)[O-])CCN(CC(=O)NCC2CCC(C(=O)NC(Cc3ccc4ccccc4c3)C(=O)NCCCCC(NC(=O)NC(CCC(=O)O)C(=O)O)C(=O)O)CC2)CCN(CC(=O)[O-])CC1.[44Sc+3] (stereo not drawn),"PET/CT, OLINDA/EXM","human patients, spleen",mean of patients,,absorbed dose,0.177 mSv/MBq
CSCOC1C(=O)C2(C)C(OCSC)CC3OCC3(OC(C)=O)C2C(OC(=O)c2ccccc2)C2(O)CC(OC(=O)C(O)C(C=C(C)C)NC(=O)OC(C)(C)C)C(C)=C1C2(C)C (stereo not drawn),,"female Sprague-Dawley rat, plasma","intravenous, 4 mg/kg",,Vd,41.7 L/kg
CCCC[C@H](NC(=O)CNC(=O)CNC(=O)CN1CCN(CC(=O)O)CCN(CC(=O)O)CCN(CC(=O)O)CC1)C(=O)N[C@H]1CC(=O)NCCCC[C@@H](C(N)=O)NC(=O)[C@H](Cc2c[nH]c3ccccc23)NC(=O)[C@H](CCCNC(=N)N)NC(=O)[C@@H](Cc2ccccc2)NC(=O)[C@H](Cc2c[nH]cn2)NC1=O [copper-64 labelled],,"female C57 mouse, B16/F1 melanoma","intravenous, 0.037 MBq, 2 h",reference: tumour over muscle,uptake ratio,12.4
COc1cc(C)c(Cc2ccc(O)cc2)cc1[C@@H]1S[C@H](CO)[C@@H](O)[C@H](O)[C@H]1O,,"Japanese T2DM patients, plasma","5 mg luseogliflozin, day 7, once daily",,AUC(0-τ),259 ± 50.8 ng·h/mL
COCCOCCOCCOCCC(=O)NCc1cc(CNC(=O)CCOCCOCCOCCOC)cc(-c2cc3cc4nc(c(-c5ccc(CCC(=O)O)cc5)c5[nH]c(cc6nc(c(OC)c2[nH]3)CC6(C)C)cc5-c2cc(CNC(=O)CCOCCOCCOCCOC)cc(CNC(=O)CCOCCOCCOCCOC)c2)CC4(C)C)c1,,water with 5% DMF,room temperature,,intersystem crossing yield,0.35
CC(C)[C@H](NC(=O)CNC(=O)[C@H](CCC(N)=O)NC(=O)[C@H](C)N)C(=O)O,,"human, both sexes, plasma","intravenous infusion, 90 mg/kg/h, 2 h infusion, geometric mean",,Cmax,6780 ng/mL
Cn1cc(C(N)=O)c(NC2C3CC4CC2CC(O)(C4)C3)c2ccnc1-2 (stereo not drawn),,"Japanese adults, normal hepatic function, plasma","oral, 150 mg single dose",,AUC(0-t),402 ng·h/mL
O=C(NCC1CO1)Oc1ccc([N+](=O)[O-])cc1 (racemic),,,"50 µM, pH 9.0, 37 °C, no enzyme",,non-enzymatic hydrolysis rate,0.18 ± 0.04 nmol/min
O=C(O)CN1CCCN2CCN(CC1)CCN(CC(=O)O)CC2 [copper-64 labelled],,"Lewis rat, male, juvenile, blood","intravenous, 100 µCi, 24 h",,blood uptake,0.01 ± 0.002 %ID/g
CCCC[C@H](NC(=O)CN1CCC(NC(=O)CN2CCN(CC(=O)O)CCN(CC(=O)O)CCN(CC(=O)O)CC2)CC1)C(=O)N[C@H]1CC(=O)NCCCC[C@@H](C(N)=O)NC(=O)[C@H](Cc2c[nH]c3ccccc23)NC(=O)[C@H](CCCNC(=N)N)NC(=O)[C@@H](Cc2ccccc2)NC(=O)[C@H](Cc2c[nH]cn2)NC1=O [gallium-68 labelled],,"male C57BL/6J mice, B16-F10 tumours, tumour, blood","intravenous, 1 h, blocking study, added: 100 µg non-radioactive Ga-peptide",reference: tumour over blood,uptake ratio,0.8 ± 0.2
CC(O)c1nc(-c2ccc3c(c2)CC[C@H]3NC(=O)c2cnn(C)c2)no1 (stereo partly drawn),,"human, pooled urine","oral, 20 mg",reference: dose,radioactive dose excreted in urine,~9.37%
Oc1ccc2ccccc2c1/N=N/c1ccc(/N=N/c2ccccc2)cc1,,rat whole blood,"16.0 µg/L, 30 days, -20 °C, long-term storage",,measured concentration,16.1 µg/L
Cn1cc(-c2cc(N3CCCS3(=O)=O)ccc2N[C@H]2CC[C@H](C)CC2)c2cc[nH]c2c1=O,,"Sprague-Dawley rat, plasma","oral vs intravenous, 3 mg/kg oral, 1 mg/kg i.v.",,oral bioavailability,12.7%
CCC(CC)CNC(=N)NC(=N)NCCCCCCNC(=N)NC(=N)NCC(CC)CC,,"BALB/c mice, male, urine","intraperitoneal, 2 mg/kg daily for 5 days, 0 to 4 h after last dose",reference: final dose,urinary excretion,0.017%
NS(=O)(=O)c1ccc(-n2nc(C(F)(F)F)cc2-c2ccc(F)cc2F)cc1,substrate,male Wistar rat liver microsomes,"20 µM, pH 7.4, mean of 0-90 and 0-60 min",,metabolite formation rate,44.5 pmol/min/mg
C=CC(=O)Nc1cc(Nc2nccc(-c3cn(C)c4ccccc34)n2)c(OC)cc1N(C)CCN(C)C,UHPLC-MS/MS,"human, finger-prick dried blood spot","oral, 80 mg daily",,steady-state trough concentration,203 ng/mL
Cc1cc2c(cc1C1(c3ncc(C(=O)O)cn3)CC1)C(C)(C)CCC2(C)C,,"rat, Sprague-Dawley, male, serum","oral, 100 mg/kg, 24 h",,triglycerides,158 ± 46.5 ng/dL
CC(C)(Sc1cc[n+]([O-])cc1-c1ccc(C#N)c2ccccc12)C(=O)OC1OC(C(=O)O)C(O)C(O)C1O (stereo not drawn),,urine,"oral, 15 mg, moderate renal impairment",reference: normal renal function,renal clearance decrease,61%
NC12CNCCNCC(NCc3ccc(CNC(=O)CCCC(=O)NCc4ccc(-c5nncnn5)cc4)cc3)(CNCCNC1)CNCCNC2.[64Cu+2],OLINDA dosimetry,thyroid,"24 h pretargeting interval, added: huA33-TCO pretargeting",,mean absorbed dose,0.0354 rad/mCi
COc1ccc(/C=C/c2ccc(-c3ccc(C)cn3)nc2)cc1,TCSPC,DMSO,,,fluorescence lifetime,0.86 ns
N=C(N)NCCC[C@@H]1NC(=O)[C@H](Cc2c[nH]c3ccccc23)NC(=O)[C@@H](CC2CCCCC2)NC(=O)[C@@H]2CCCN2C(=O)[C@@H](NC(=O)CCc2ccccc2)CCCNC1=O,,"C57BL/6J mice, brain","intravenous, 1 mg/kg, two-compartment model",,apparent total clearance (CL/F),2.56 ng/(min·ng/g)
CCCC[C@H](NC(=O)CNC(=O)CNC(=O)CN1CCN(CC(=O)O)CCN(CC(=O)O)CCN(CC(=O)O)CC1)C(=O)N[C@H]1CC(=O)NCCCC[C@@H](C(N)=O)NC(=O)[C@H](Cc2c[nH]c3ccccc23)NC(=O)[C@H](CCCNC(=N)N)NC(=O)[C@@H](Cc2ccccc2)NC(=O)[C@H](Cc2c[nH]cn2)NC1=O [lead-203 labelled],,"C57 mouse, liver","intravenous, 0.056 MBq, 24 h",,tissue uptake,1.04 ± 0.21 %ID/g
COC(=O)/C=C/C(=O)c1ccc(OC)cc1,,"Sprague-Dawley rat, plasma","oral, 100 mg/kg",,Vd/F,1030 L/kg
Cc1ccc(OCC(=O)O)cc1,,"Sprague-Dawley rat, female, plasma","oral gavage, 10 mg/kg of parent drug",reference: compound over parent drug,AUC(0-last) ratio,979
CC/C=C\C/C=C\C/C=C\C/C=C\C/C=C\CCCCOC(CC)C(=O)O (stereo not drawn),14C radiolabel,"Wistar rats male, liver","oral, 100 mg/kg, 2 h",,tissue concentration,134 µg/g
CC(C)c1cnc(-c2cc(Cl)ccc2F)cc1Nc1ccncc1C(=O)NC(CO)CO,,"patients, phase I monotherapy","oral, dose not given, grade 2",,patients with AST increase,9.5%
CCCCCCCCCCCCCCCC(=O)NCCOCCOCCOCCOCCOCCOCCOCCOCCC(=O)NCCCC[C@H](NC(=O)CNC(=O)[C@@H]1CSSC[C@H](N)C(=O)N[C@@H](Cc2ccc(O)cc2)C(=O)N[C@@H]([C@@H](C)CC)C(=O)N[C@@H](CCC(N)=O)C(=O)N[C@@H](CC(N)=O)C(=O)N1)C(=O)NCC(N)=O,,"male Wistar Hannover rat, plasma","intravenous bolus, 0.1 mg/kg",,steady-state volume of distribution,0.61 L/kg
CCn1c(=O)n(CCO)c(=O)c2c1nc(/C=C/c1ccc(OC)c(OC)c1)n2C,,"healthy humans, plasma","oral, 40 mg",,metabolite to parent AUClast ratio,0.0461
CCC1CC2C(C)=CC3C(=O)CCCC3C=CC(C)=CC2C(=O)O1 (stereo not drawn),,"ICR mouse (male), plasma","oral, 30 mg/kg, 60 min",,plasma concentration,0.8 ± 0.8 ng/mL
COC[C@@H](CC(C)C)NC(=O)c1ccc(CO)c(CO)c1,LC-MS,human liver microsomes,"10 µM of parent drug, 10 min, pH 7.4, added: NADPH",reference: parent drug at time zero,metabolite peak area,0.2%
O=C(Nc1nccs1)C(c1cc(F)ccc1O)N1Cc2ccccc2C1=O (stereo not drawn),,"FVB/NRj mouse, female, small intestine with contents","oral, 20 mg/kg, 4 h",reference: dose,amount recovered,~1.74%
COc1cc2c(cc1OC)CN(CCCCn1ccc3cc(OCC[18F])ccc31)C2,,"ICR mice, male","intravenous, 30 min",,brain/blood ratio,2.29
Cn1c(=O)oc2ccc(-c3ccc(CC(C#N)NC(=O)C4CNCCCO4)c(F)c3)cc21 (stereo not drawn),,human,"oral, 20 mg once daily, TEAE, multiple ascending dose",,monocyte count increased incidence,0%
O=C(NCCCN(CCCCN(CCCNC(=O)c1cccc(=O)n1[O-])C(=O)c1cccc(=O)n1[O-])C(=O)c1cccc(=O)n1[O-])c1cccc(=O)n1[O-].[89Zr+4],radio-TLC,PBS,"1 d, pH 7.4, 37 °C, added: K^+ 10-fold excess",,intact complex,98.7 ± 1.9%
CCCC[C@H](NC(C)=O)C(=O)N[C@H]1CC(=O)NCCCC[C@@H](C(=O)N[C@@H](C(=O)N2CCC[C@@H]2C(N)=O)C(C)C)NC(=O)[C@H](Cc2c[nH]c3ccccc23)NC(=O)[C@H](CCCN=C(N)N)NC(=O)[C@@H](Cc2ccc3ccccc3c2)NC(=O)[C@@H]2CCCN2C1=O,,"Beagle dog, both sexes, plasma","subcutaneous, once daily, 2.25 mg/kg, day 28",,Tmax,2.2 ± 0.5 h
COc1ccc(-c2ccn(CC[C@](C)(C(=O)NO)S(C)(=O)=O)c(=O)c2)c(F)c1,,"CF-1 mouse, female","subcutaneous, 18.75 mg/kg",,clearance,63.2 ± 13 mL/min/kg
CC(C)[C@H](NC(=O)[C@@H]1CCCN1C(=O)[C@H](CCCNC(=N)N)NC(=O)[C@H](CS)NC(=O)[C@H](Cc1c[nH]c2ccccc12)NC(=O)[C@H](CCCNC(=N)N)NC(=O)[C@@H](Cc1ccccc1)NC(=O)[C@H](Cc1c[nH]cn1)NC(=O)[C@H](CCC(=O)O)NC(=O)[C@H](CS)NC(=O)[C@H](CS)NC(=O)CNC(=O)[C@@H]1CC(=O)N[C@@H](CCCNC(=N)N)C(=O)NCC(=O)N[C@@H](CC(=O)O)C(=O)N[C@H](Cc2ccc(O)cc2)C(=O)N1)C(N)=O [technetium-99m labelled],,"C57 mouse, female, B16/F1 melanoma, spleen","intravenous, 0.037 MBq, 0.5 h",,tissue uptake,2.32 ± 1.1 %ID/g
COc1cc(NC(C)=O)c2c(c1O)-c1c(OC)c(OC)cc3c1C(C2)N(C)CC3 (stereo not drawn),,"rat, processed plasma samples","5 µg/mL, 24 h, room temperature, post-preparative storage",,remaining compound,104 ± 3.1%
CCCC[C@H](NC(=O)CNC(=O)CNC(=O)CN1CCN(CC(=O)O)CCN(CC(=O)O)CCN(CC(=O)O)CC1)C(=O)N[C@H]1CC(=O)NCCCC[C@@H](C(N)=O)NC(=O)[C@H](Cc2c[nH]c3ccccc23)NC(=O)[C@H](CCCNC(=N)N)NC(=O)[C@@H](Cc2ccccc2)NC(=O)[C@H](Cc2c[nH]cn2)NC1=O [gallium-67 labelled],,"C57 mice, female, B16/F1 melanoma, urine","intravenous, 0.037 MBq, 2 h",,urinary excretion,84.9 ± 2.81%
Nc1ncnc(NCC(CCO)CCNC(=O)C(O)CO)c1-c1ccc(Oc2ccccc2)cc1 (stereo not drawn),,"male humans, faeces","oral, 75 mg, single metabolite",reference: dose,metabolite excreted in faeces,1.31 to 2.96%
COC(=O)c1ccc(-c2cn(Cc3cc(Cl)ccc3O[11CH3])nn2)cc1,"PET, two-tissue compartment model","rhesus monkey, brain NAc",dose not given,,distribution volume,0.699 mL/cm³

# Repeated from above:
Compound,assay,system,conditions,how to read,measurement,value
Cn1c(=O)oc2ccc(-c3ccc(CC(C#N)NC(=O)C4CNCCCO4)c(F)c3)cc21 (stereo not drawn),,human,"oral, 20 mg once daily, TEAE, multiple ascending dose",,monocyte count increased incidence,0%
O=C(NCCCN(CCCCN(CCCNC(=O)c1cccc(=O)n1[O-])C(=O)c1cccc(=O)n1[O-])C(=O)c1cccc(=O)n1[O-])c1cccc(=O)n1[O-].[89Zr+4],radio-TLC,PBS,"1 d, pH 7.4, 37 °C, added: K^+ 10-fold excess",,intact complex,98.7 ± 1.9%
CCCC[C@H](NC(C)=O)C(=O)N[C@H]1CC(=O)NCCCC[C@@H](C(=O)N[C@@H](C(=O)N2CCC[C@@H]2C(N)=O)C(C)C)NC(=O)[C@H](Cc2c[nH]c3ccccc23)NC(=O)[C@H](CCCN=C(N)N)NC(=O)[C@@H](Cc2ccc3ccccc3c2)NC(=O)[C@@H]2CCCN2C1=O,,"Beagle dog, both sexes, plasma","subcutaneous, once daily, 2.25 mg/kg, day 28",,Tmax,2.2 ± 0.5 h
COc1ccc(-c2ccn(CC[C@](C)(C(=O)NO)S(C)(=O)=O)c(=O)c2)c(F)c1,,"CF-1 mouse, female","subcutaneous, 18.75 mg/kg",,clearance,63.2 ± 13 mL/min/kg
CC(C)[C@H](NC(=O)[C@@H]1CCCN1C(=O)[C@H](CCCNC(=N)N)NC(=O)[C@H](CS)NC(=O)[C@H](Cc1c[nH]c2ccccc12)NC(=O)[C@H](CCCNC(=N)N)NC(=O)[C@@H](Cc1ccccc1)NC(=O)[C@H](Cc1c[nH]cn1)NC(=O)[C@H](CCC(=O)O)NC(=O)[C@H](CS)NC(=O)[C@H](CS)NC(=O)CNC(=O)[C@@H]1CC(=O)N[C@@H](CCCNC(=N)N)C(=O)NCC(=O)N[C@@H](CC(=O)O)C(=O)N[C@H](Cc2ccc(O)cc2)C(=O)N1)C(N)=O [technetium-99m labelled],,"C57 mouse, female, B16/F1 melanoma, spleen","intravenous, 0.037 MBq, 0.5 h",,tissue uptake,2.32 ± 1.1 %ID/g
